Results collected from several papers.
Numbers after ± are the reported error.

CCCC[C@H](NC(=O)CNC(=O)CNC(=O)CN1CCN(CC(=O)O)CCN(CC(=O)O)CCN(CC(=O)O)CC1)C(=O)N[C@H]1CC(=O)NCCCC[C@@H](C(N)=O)NC(=O)[C@H](Cc2c[nH]c3ccccc23)NC(=O)[C@H](CCCNC(=N)N)NC(=O)[C@@H](Cc2ccccc2)NC(=O)[C@H](Cc2c[nH]cn2)NC1=O [copper-64 labelled]  tissue uptake (female C57 mouse, B16/F1 melanoma, spleen; intravenous, 0.037 MBq, 2 h): 0.82 ± 0.26 %ID/g
O=C([O-])CN1CCN(CC(=O)[O-])CCN(CC(=O)NCCc2ccc3c(c2)C2C=CCC2C(c2cc4c(cc2Br)OCO4)N3)CCN(CC(=O)[O-])CC1.[111In+3] (centres unmarked)  tissue uptake (mouse, Hec50 endometrial tumour, uterus; 2 h post injection): 0.69 ± 0.08 %ID/g
O=C(O)C1CN(Cc2ccc(-c3noc(-c4ccc(OCC[18F])c(C(F)(F)F)c4)n3)cc2)C1  tissue uptake (male Sprague-Dawley rat, lung; intravenous, 120 min): 0.272 ± 0.053 %ID/g
CCCC[C@H](NC(=O)CNC(=O)CNC(=O)CN1CCN(CC(=O)O)CCN(CC(=O)O)CC1)C(=O)N[C@H]1CC(=O)NCCCC[C@@H](C(N)=O)NC(=O)[C@H](Cc2c[nH]c3ccccc23)NC(=O)[C@H](CCCNC(=N)N)NC(=O)[C@@H](Cc2ccccc2)NC(=O)[C@H](Cc2c[nH]cn2)NC1=O [copper-64 labelled]  tissue uptake (female C57 mouse, B16/F1 melanoma, brain; intravenous, 0.037 MBq, 24 h): 0.04 ± 0.03 %ID/g
C[C@H](CN(C)Cc1ccccc1)NC(=O)c1ccc(-c2noc(C(F)(F)[18F])n2)cc1  tissue uptake (PET imaging; female Sprague-Dawley rats, heart; intravenous, 30 min): 0.52 ± 0.16 SUV
CCCC[C@H](NC(=O)CNC(=O)CNC(=O)CN1CCN(CC(=O)O)CCN(CC(=O)O)CCN(CC(=O)O)CC1)C(=O)N[C@H]1CC(=O)NCCCC[C@@H](C(N)=O)NC(=O)[C@H](Cc2c[nH]c3ccccc23)NC(=O)[C@H](CCCNC(=N)N)NC(=O)[C@@H](Cc2ccccc2)NC(=O)[C@H](Cc2c[nH]cn2)NC1=O [lead-203 labelled]  tissue uptake (C57 mouse, pancreas; intravenous, 0.056 MBq, 4 h): 0.07 ± 0.11 %ID/g
CC(C)[C@H](NC(=O)[C@@H]1CCCN1C(=O)[C@H](CCCNC(=N)N)NC(=O)[C@H](CS)NC(=O)[C@H](Cc1c[nH]c2ccccc12)NC(=O)[C@H](CCCNC(=N)N)NC(=O)[C@@H](Cc1ccccc1)NC(=O)[C@H](Cc1c[nH]cn1)NC(=O)[C@H](CCC(=O)O)NC(=O)[C@H](CS)NC(=O)[C@H](CS)NC(=O)CNC(=O)[C@@H]1CC(=O)N[C@@H](CCCNC(=N)N)C(=O)NCC(=O)N[C@@H](CC(=O)O)C(=O)N[C@H](Cc2ccc(O)cc2)C(=O)N1)C(N)=O [technetium-99m labelled]  tissue uptake (C57 mouse, female, B16/F1 melanoma, skin; intravenous, 0.037 MBq, 2 h): 1.56 ± 0.43 %ID/g
CN1C(=O)[C@@H](Cc2ccc(O)c(I)c2)NC(=O)CNC(=O)[C@H](Cc2ccc3ccccc3c2)NC(=O)[C@H](CCCNC(=N)N)NC(=O)[C@H]1CCCNC(=O)c1ccc(CNC(=O)CN2CCN(CC(=O)O)CCN(CC(=O)O)CCN(CC(=O)O)CC2)cc1 [lutetium-177 labelled]  tissue uptake (measured: 177Lu radioactivity; female CB-17 SCID mice, Daudi xenograft, blood; intravenous, 0.16 nmol per mouse, 1 h): 1.3 ± 0.4 %ID/g
CN(C)c1ccc(-c2nc3ccc(OCCCCCN4CCN5CCN(CC4)CC(=O)[O][Al]([18F])[O]C(=O)C5)cc3s2)cc1  tissue uptake (ICR mouse, bone; intravenous, 10 min): 1.97 ± 0.79 %ID/g
CC(C)[C@H](NC(=O)[C@@H]1CCCN1C(=O)[C@H](CCCNC(=N)N)NC(=O)[C@H](CS)NC(=O)[C@H](Cc1c[nH]c2ccccc12)NC(=O)[C@H](CCCNC(=N)N)NC(=O)[C@@H](Cc1ccccc1)NC(=O)[C@H](Cc1c[nH]cn1)NC(=O)[C@H](CCC(=O)O)NC(=O)[C@H](CS)NC(=O)[C@H](CS)NC(=O)[C@@H]1CC(=O)N[C@@H](CCCNC(=N)N)C(=O)NCC(=O)N[C@@H](CC(=O)O)C(=O)N[C@H](Cc2ccc(O)cc2)C(=O)N1)C(N)=O [technetium-99m labelled]  tissue uptake (C57 mouse, female, B16/F1 melanoma, skin; intravenous, 0.037 MBq, 24 h): 0.32 ± 0.13 %ID/g
O=C([O-])CN1CCN(CC(=O)[O-])CCN(CC(=O)[O-])CCN(CC(=O)[O-])CC1.[64Cu+2]  tissue uptake (healthy athymic nude mice, lung; intravenous, 4 h): 1.25 %ID/g
CCCC[C@@H]1NC(=O)[C@@H](NC(=O)[C@H](CCC(=O)O)NC(=O)CNC(=O)CN2CCN(CC(=O)O)CCN(CC(=O)O)CCN(CC(=O)O)CC2)CCCCNC(=O)C[C@@H](C(N)=O)NC(=O)[C@H](C(C)C)NC(=O)[C@@H]2CCCN2C(=O)[C@H](CCCNC(=N)N)NC(=O)CNC(=O)[C@H](Cc2c[nH]c3ccccc23)NC(=O)[C@H](CCCNC(=N)N)NC(=O)[C@@H](Cc2ccccc2)NC(=O)[C@H](Cc2c[nH]cn2)NC(=O)[C@H](CCC(=O)O)NC1=O [gallium-67 labelled]  tissue uptake (normal C57 mice, pancreas; intravenous, 0.037 MBq/mouse, 2 h): 0.15 ± 0.07 %ID/g
NC12CNCCNCC(NCc3ccc(CNC(=O)CCCC(=O)NCc4ccc(-c5nncnn5)cc4)cc3)(CNCCNC1)CNCCNC2.[64Cu+2]  tissue uptake (athymic nude mice SW1222 xenograft, muscle; 1 h post injection, 24 h accumulation interval, added: huA33-TCO pretargeting): 0.38 ± 0.06 %ID/g
CCCC[C@H](NC(=O)CNC(=O)CNC(=O)CN1CCN(CC(=O)O)CCN(CC(=O)O)CC1)C(=O)N[C@H]1CC(=O)NCCCC[C@@H](C(N)=O)NC(=O)[C@H](Cc2c[nH]c3ccccc23)NC(=O)[C@H](CCCNC(=N)N)NC(=O)[C@@H](Cc2ccccc2)NC(=O)[C@H](Cc2c[nH]cn2)NC1=O [gallium-67 labelled]  tissue uptake (female C57 mice, B16/F1 melanoma, stomach; intravenous, 0.037 MBq, 0.5 h): 1.79 ± 0.22 %ID/g

A few entries again:
O=C(O)C1CN(Cc2ccc(-c3noc(-c4ccc(OCC[18F])c(C(F)(F)F)c4)n3)cc2)C1  tissue uptake (male Sprague-Dawley rat, lung; intravenous, 120 min): 0.272 ± 0.053 %ID/g
